Experimental data collected from several papers.
Parts stem from different laboratories: compare values within a part only. Substitutions count along the parent as printed.

Sample 1 — target: CCNB1, cyclin fold, Cln2 fusion (human); technique: yeast growth competition, sequencing; medium: yeast; setting: strong parent motif; relative to: not given; reading: higher = stronger binding
Starting sequence: INSM1 docking peptide (human); PKAIRKLHFEDEV; partner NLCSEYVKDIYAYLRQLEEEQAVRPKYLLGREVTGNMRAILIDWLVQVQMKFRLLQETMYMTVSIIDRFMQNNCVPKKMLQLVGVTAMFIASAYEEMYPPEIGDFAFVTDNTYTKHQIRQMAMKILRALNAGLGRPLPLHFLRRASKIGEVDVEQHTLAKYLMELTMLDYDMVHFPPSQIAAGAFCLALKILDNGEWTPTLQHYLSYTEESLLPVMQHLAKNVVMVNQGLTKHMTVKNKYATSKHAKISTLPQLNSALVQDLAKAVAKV
Change	normalised enrichment score
F9G	0.12
L7V	0.286
I4T	1.31
H8N	3.12
E10F	1.29
A3S	0.742

Sample 2 — technique: protein-binding microarray; molecule type: double-stranded DNA, one strand shown; medium: in vitro; tested at: 250 nM; setting: 60-bp whole probe; together with: salmon DNA 0.4 mg/ml; relative to: random background probes; reading: higher = stronger binding; constant ends, left off below: GCCTAGCAC … GTCTTGATTCGCTTGACGCTGCTG
Target: Interferon regulatory factor 5, full length, phosphomimetic (IRF5, Homo sapiens, UniProt Q13568-2, residues 1-514, K96S/S451D/S453D/S456D/S462D)
Sequence	log fluorescence [z-score]
TTAGGACTGGGTTTAGGTTAGTGCTAG	-0.359
CTAGGACTGGGGACTGGGTTAGTGCTA	-0.883
TGTTATTAAAATTTAATGGGGTGCTAG	0.405
GACGGTATCCTACTGCCGACGTGCTAG	0.142
TTAGGTTTCGGGTTTCGGTTCGTGCTA	9.7
TTGCAGATGACGAAACTGAAGTGCTAG	2

Sample 3 — technique: aptamer microarray, sandwich; molecule type: DNA with 2'F-ANA; medium: in vitro; tested at: 200 nM; together with: Cy3 exosite-II aptamer, 400 nM; reading: higher = stronger binding; sequence: GGTTGGTGTGGTTGG
Target: Prothrombin, mature alpha-thrombin (F2, Homo sapiens, UniProt P00734)
Setting: whole 15-mer aptamer, many near background
Modification	mean fluorescence intensity
2'F-ANA at 1 2 3 7 10 13 14 15	52.6 a.u.
2'F-ANA at 5 9 14	45.9 a.u.
2'F-ANA at 1 2 5 7 8 9 12 13 14 15	44.1 a.u.
2'F-ANA at 1 2 4	162 a.u.
2'F-ANA at 2 4 6 13 15	171 a.u.
2'F-ANA at 2 9 10 13	119 a.u.
2'F-ANA at 4 6 9 11 14	71.4 a.u.
2'F-ANA at 1 2 4 5 6 7 8 9 11 12 13 15	62.5 a.u.
2'F-ANA at 3 4 8 9	868 a.u.

Mixed results
Substance	target	assay	test system	conditions	scale	endpoint	result
PhoQ, residues 284 288 289 292 302 303 SASVAL	PhoP, residues 12 14 15 18 19 NYFTV (Escherichia coli, UniProt P23836)	Sort-seq, item: YFP reporter	E. coli	PhoQ-PhoP variant library, together with: 10 µM Mg2+	relative to: high Mg2+ state, higher = stronger signaling	fold induction	0.373

Excerpt of the above (sample 3):
Modification	mean fluorescence intensity
2'F-ANA at 4 6 9 11 14	71.4 a.u.
2'F-ANA at 1 2 5 7 8 9 12 13 14 15	44.1 a.u.
